Results gathered from unrelated publications.
Compare with care: the assays were run in different laboratories. Numbers after ± are the reported error.
Cell line: human neutrophils

| Molecule | test | setting | endpoint | result |
| --- | --- | --- | --- | --- |
| CCC(C(=O)Nc1ccc(Br)cc1)n1nc(C)cc(Cc2cccc(OC)c2)c1=O (racemic) | calcium mobilization, agonist |  | EC50 | 1.8 µM |
| (+)-episesamin | calcium flux, agonist |  | EC50 | 38.1 ± 4.2 µM |
| COc1cccc(Cc2c(C)c(C)nn(CC(=O)Nc3ccc(Br)cc3)c2=O)c1 | chemotaxis, agonist | 1 h | EC50 | 0.27 ± 0.06 µM |
| COc1cccc(Cc2cc(C)nn([C@H](C)C(=O)Nc3ccc(Br)cc3)c2=O)c1 | calcium mobilization, agonist |  | EC50 | 1.4 µM |
| CC1(C)CC[C@]2(C(=O)O)CC[C@]3(C)C(=CC[C@@H]4[C@@]5(C)CC[C@H](O)C(C)(C)[C@@H]5CC[C@]43C)[C@@H]2C1 | calcium flux, inhibitor | added: fMLF | IC50 | 1.5 µM |
| C[C@@](Cc1c[nH]c2ccccc12)(NC(=O)Nc1ccc([N+](=O)[O-])cc1)C(=O)NCC1(c2ccccn2)CCCCC1 | calcium mobilisation, agonist | added: 2.5 mM probenecid | EC50 | 0.19 ± 0.07 µM |
| C[C@H](CCC(=O)O)[C@H]1CC[C@H]2[C@@H]3CC[C@@H]4C[C@H](O)CC[C@]4(C)[C@H]3C[C@H](O)[C@]12C | calcium mobilization | 30 min, added: fMLF 5 nM | IC50 | 32.6 ± 3.3 µM |
| Cc1nn(CC(=O)Nc2ccc(Br)cc2)c(=O)c(N)c1-c1cc[nH]n1 | calcium flux, agonist |  | EC50 | 11.8 ± 2.4 µM |
| COc1ccc(C2(CNC(=O)[C@](C)(Cc3c[nH]c4ccccc34)NC(=O)Nc3ccc([N+](=O)[O-])cc3)CCCCC2)nc1 | calcium mobilisation, agonist | without probenecid | EC50 | 0.72 ± 0.21 µM |
| CCCCCc1c(C)nn(CC(=O)Nc2ccc(Br)cc2)c(=O)c1Nc1cccc(OC)c1 | calcium flux, agonist |  | EC50 | 5.7 ± 1.2 µM |
| COc1ccccc1C1C(C(=O)c2ccc(C)cc2)=C(O)C(=O)N1CC(C)O (stereo not drawn) | adhesion to T84 cells | 50 µM, added: fMLF 10 nM | adhesion inhibition | inactive |
| CC1=NN(CC(=O)Nc2ccc(Br)cc2)C(=O)CC1C (racemic) | calcium mobilization, agonist |  | EC50 | 13 ± 1.8 µM |

For quick reference, copied from above:
| Molecule | test | setting | endpoint | result |
| --- | --- | --- | --- | --- |
| CCC(C(=O)Nc1ccc(Br)cc1)n1nc(C)cc(Cc2cccc(OC)c2)c1=O (racemic) | calcium mobilization, agonist |  | EC50 | 1.8 µM |
